Published values collected from several papers.
A part holds a random share of what one study measured.

Block 1 — technique: RNA Bind-n-Seq; form: RNA; sample: in vitro; tested at: 365 nM; reference: no-protein control; reading: higher = stronger binding
Target: RNA binding protein fox-1 homolog 2, RRM domain, GST-SBP tag (RBFOX2, Homo sapiens, UniProt O43251-10, residues 100-194)
Setting: natural RNA segment, single round, ends assumed
Constant ends, left off below: GGGAGUUCUACAGUCCGACGAUC … UGGAAUUCUCGGGUGCCAA
Target sequence (chain): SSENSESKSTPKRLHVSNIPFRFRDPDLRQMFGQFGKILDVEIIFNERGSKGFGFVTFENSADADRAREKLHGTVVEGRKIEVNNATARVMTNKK
Strand | RBNS enrichment (R)
GUGUCAAGCACAUUAUAGUGUUUGCCCUCACAGGAAAAAAAAAAAAGUCCCCUGUUCUGAAAACAGGCCAGUGGUGGGCCGCCACUCUGCUGCUAUCAGCUCUGUUAGGU | 0.214
AUCUGGUAUUAUUACAGAAAUCUCCCAGAUUAUACACAUAAACAUUUUAUGGACAUUUUUUGGGCAUUUAAGCCAUCAGGCCUAUUGCAAGAGUGCCUCCUGUAGCAGUU | 0.303
CAGCUCCCAGUCAGACAACAGCCAGAAAUGUCUCCAGACUCUGCCCAGCCUCCCCAGGUAGCCACCCUCGAGACACGACCUCAGAGUCUCUGUGUCUCCUAGAAGCCUGA | 0.433
GCAGCCUAAGCUGAUUUGGAUCUGGGUUUCUCCUCCAGGUAGGGUUGUUUUGUUUCCUUCGCCCUUUUCUUCUCUGUGUAAAGGCGAUUCCCUAGACCCAGGAUGGACCC | 1.29
CCUCACAGAGUGGCCCGUAUCACUCCCCACGUCUGUAGACACAUGGCUUUGAAUGAUUACUAUUUGGUCUGUGUGCUACUAACAGAUAAUAAACGAUCACCAGGAAACUU | 0.658

Block 2 — technique: universal PBM; form: double-stranded DNA, one strand shown; sample: in vitro; tested at: not given; reading: higher = stronger binding
Target: Sal-like protein 4, full length isoform B (SALL4, Homo sapiens, UniProt Q9UJQ4-2, residues 1-616)
Setting: 8-mer, flanks averaged, mean of replicates
Strand | E-score
GGGTGAAC | -0.0088
ACCTCTGA | -0.118
AATTAGGC | 0.2
AGCCAGTA | -0.204
GCCTGTTA | 0.0785
CAATAAAG | 0.249
ATGTACTC | 0.0867

Block 3 — technique: protein binding microarray; form: double-stranded DNA, one strand shown; sample: in vitro; tested at: not given; reference: not given; reading: higher = stronger binding
Target: Histone acetyltransferase KAT6A, winged helix 2, GST fusion (KAT6A, Homo sapiens, UniProt Q92794, residues 85-181)
Setting: 8-mer, flanks averaged, mean of 2 arrays, mostly near background
Construct (chain): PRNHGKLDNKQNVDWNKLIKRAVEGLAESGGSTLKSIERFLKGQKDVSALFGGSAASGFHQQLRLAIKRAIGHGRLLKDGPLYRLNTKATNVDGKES
Strand | E-score
AAGCCGTG | 0.0445
AGCTCCGC | 0.232
GAGAACTC | -0.102
CCCGGAAG | 0.0613
CCAAAGGA | -0.0885
TGCGCCCA | -0.0556
GACTGGCC | -0.0425

Other studies, line by line
Molecule | target | test | system | conditions | scale | endpoint | result
PhoQ, residues 284 288 289 292 302 303 SSCLAV | PhoP, residues 12 14 15 18 19 QYCSL (Escherichia coli, UniProt P23836) | Sort-seq, refers to: YFP reporter | E. coli | PhoQ-PhoP variant library, with: 10 µM Mg2+ | reference: high Mg2+ state, higher = stronger signaling | fold induction | 15.6
